Measurements collected from several papers.
Every numbered part comes from another study and shows a few of its results, in no order.

Block 1
Target: Ras GTPase-activating protein-binding protein 1, RRM domain (G3BP1, Homo sapiens, UniProt Q13283)
Sequence of UniProt Q13283 (whole entry, looked up): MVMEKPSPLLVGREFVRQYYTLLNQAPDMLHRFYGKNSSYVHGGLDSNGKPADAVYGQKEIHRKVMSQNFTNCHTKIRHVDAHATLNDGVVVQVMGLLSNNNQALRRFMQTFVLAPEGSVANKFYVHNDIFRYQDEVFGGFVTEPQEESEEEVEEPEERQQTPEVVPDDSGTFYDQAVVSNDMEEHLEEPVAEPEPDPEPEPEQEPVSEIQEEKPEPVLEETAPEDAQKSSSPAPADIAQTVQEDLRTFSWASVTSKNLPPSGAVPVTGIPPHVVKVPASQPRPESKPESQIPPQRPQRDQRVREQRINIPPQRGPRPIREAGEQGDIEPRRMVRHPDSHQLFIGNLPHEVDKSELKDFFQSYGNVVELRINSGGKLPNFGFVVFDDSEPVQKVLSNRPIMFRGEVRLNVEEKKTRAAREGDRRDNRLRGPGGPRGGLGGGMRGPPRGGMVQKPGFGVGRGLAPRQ
Method: RNA Bind-n-Seq
Molecule type: RNA
Sample: in vitro
Concentration: 1 µM
Notes: whole 134-nt RNA, ends assumed
With: 150 mM KCl
Reference: input library
Reading: higher = stronger binding
Shared flanks, not repeated: GGGAGUUCUACAGUCCGACGAUC … UGGAAUUCUCGGGUGUCAAGG
Sequence	log2 enrichment
UGGCCCAGGUGGCAUGCGGGGAGGAAGAGGUGGCCUCAUGGAUCGUGGUGGUCCCGGUGGAAUGUUCAGAGGUGGCCGUGGUGGAGACAG	0.608
CACAGGCAACACGCACCCACACAGACACAGAGGGAAGGGGUUGGGAUGGGGACAGGGUGCACAGCAGGGCGGGGUAGGACCCCAGCCCCU	-0.116
CACAGACAACACGCACCCACACAGACACAGAGGGAAGGGGUUGGGAUGGGGACAGGGUGCUCAGCAGGGCGGGGUAGGACCCCAGCCCCU	-0.22
CCUCAAGUCCUGUGCUACACAUCGUAUGUACCGAAUCGGGCGGCGGGCGGGGAAAGUAUUAUGUUACGCCGUUCGGAUCUGCACUUCCAG	-0.085
CAAGUCCUGUGCUACACAUCGUAUGUACCGAAUCGGAAAGGUUUUUGGUUUUUGGAAAGUAUUAUGUUACGCCGUUCGGAUCUGCACUUC	-0.276
UGGCCCUGGUGGCAUGCGGGGAGGAAGAGGUGGCCUCAUGGAUCGUGUUGGUCCCGGUGGAAUGUUCAGAGGUGGCCGUGGUGGAGACAG	0.854
ACCAUGCAGGUGGGCAUCUUUGGGAAGUGGGGCAAGGGGGGGAUAGGGAGGGGGGUAACACUUUGGGAACAGGUGGUCCCAGGUCAAAUC	-0.412
UCAAGUCCUGUGCUACACAUCGUAUGUACCGAAUCGGGCCGGGCCGGGCCGGGGAAAGUAUUAUGUUACGCCGUUCGGAUCUGCACUUCC	-0.636
GUCCUGUGCUACACAUCGUAUGUACCGAAUCGGCCCCCGGGGCCCCCGGGGCCCCCGGGAAAGUAUUAUGUUACGCCGUUCGGAUCUGCA	-0.479
UAACUUUAGAGGAGGAUCUGAUGGAUAUGGCAGUGGUCGUGGAUUUGGGGAUGGCUAUAAUGGGUAUGGAGGAGGACCUGGAGGUGGCAA	-0.628

Block 2
Target: RNA binding protein fox-1 homolog 2, RRM domain, GST-SBP tag (RBFOX2, Homo sapiens, UniProt O43251-10, residues 100-194)
Method: RNA Bind-n-Seq
Molecule type: RNA
Sample: in vitro
Concentration: 365 nM
Notes: natural RNA segment, single round, ends assumed
Reference: no-protein control
Reading: higher = stronger binding
Shared flanks, not repeated: GGGAGUUCUACAGUCCGACGAUC … UGGAAUUCUCGGGUGCCAA
Construct (chain): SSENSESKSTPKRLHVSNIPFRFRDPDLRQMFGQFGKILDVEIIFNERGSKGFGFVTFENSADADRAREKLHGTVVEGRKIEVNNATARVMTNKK
Sequence	RBNS enrichment (R)
CUGGCCAGCUUCAGCCUACAGCUUUAAAUUCUGUCUGCUCCUAAAUGGGUCCAAAGCUCAGUACUGGGGAGCCUGGGGUCCCCACUUGAAUGUGCAGCAGGAGGUCCUUU	0.449
GUCCCCCAGUCAGUUCCUUUAACAGACCUGAGCUUCUAUGAUGCCAAGGGCGUUCACUGCGACCUGGGAGUAAACAGGGUGUCGCUGCCCUGUGAGAGGAAGAUGGGGCC	0.251
GUGUCUUUGGUAGGGGUGUAUUUUUAUUACACAGAGUUUUUGAACAUAUAGGGACCCCACCAAGAGGCUCUCCUCUCCCCUUCUUAAUCCCAGUAUAGACUGAGUGUCCA	0.43
AGAUCCCAGUCCACGAUGAUGAGUCAGGGAGACUCGAUAACUGCUCCUUGGCCAUUCAUUUUCCUCCAGCCCAUAGCUCUGCCCACUCCAGUGUCAAACACCGCCCAGGC	0.323
UGCCUAUGCCAGCUAAAAGUUUUUCCUGUUACUGCUGUGUUCUUCUUGCUAGAGAAAACAUAUAUUAAACUGUAACUUUUUCUAAAUUUAAAAGAAGUUUUAAGAUAGAU	0.485
AACAUUUCUGGACAGUACCUGAUUGUAUUUUUUUUUUAAAUAAAAGCACAAGUACUUUUGAGUUUGUAUUUUGCUUUGAAUUGUUGAGUCUGAAUUUCACCAAAGCCAAU	0.483
ACCAAGUCCAGAUUUGUGUGUAAGCAGCUGGGUGCCUGGGGCCUCUCGUGCACACUGGAUUGGUUUCUCAGUUGCUGGGCGAGCCUGUACUCUGCCUGACGAGGAACGCU	0.931
UAACUGGCAAGGGAUGAUGUCAGAUUCAGCCCAAGGUUCCUCCUCUCCUACCAAGCAGGAGGCCAGGAACUUCUUUGGACUUGGAAGGUGUGCGGGGACUGGCCGAGGCC	0.497
CUUUAUGCCUGGUGGCACAUUAUUCACCCGGUAACCUCCAGCUGCUUUGAUCCUGUUUCAGUCAAAGUCAGCUUCAGCCACCCCCUCCAUUCCCUAGCCAGCUCCACCCU	0.648
AGCUCCAGGCUCUGACUUCACCGUCACCCUCUGAAGAGCUAUGAUCAUGCUGGUGAGAAAGUAUGAUUUCCCAACCUCUGCUUGUGGUGUUGGAAGGAGUGGCCUGGCCA	1.18
CUCUAUGUUAAAAUGCCAAAAAUGACCCAGUCUGUCGCUUUCCUCCGCCCCAGCGCUUCACAGCCGCUUCUGGCUUUGCAAGGUGUCUGUCUCGGCCAGUGCCGUGGCCU	0.327
CCCUUUCAUAAAAACCAAACUGUAGCAAGAUGCAAAUGCAUGGCAAAUCCUGUCGGUCUCCAGUUGGUUAUCUGAAUAGUGUCACCAAUUCCACCAAGACAGUGCUGAGA	1.18

Block 3
Target: RING finger protein unkempt homolog, zinc fingers 1-6, GST-SBP tag (UNK, Homo sapiens, UniProt Q9C0B0, residues 30-357)
Method: RNA Bind-n-Seq
Molecule type: RNA
Sample: in vitro
Concentration: not given
Notes: RNA with constant flanks, human-mouse chimeric sites, ends assumed
Reference: input RNA pool
Reading: higher = stronger binding
Shared flanks, not repeated: GGGAGUUCUACAGUCCGACGAUC … CAACAGAGGAUUGAGCAUCA
Target sequence (chain): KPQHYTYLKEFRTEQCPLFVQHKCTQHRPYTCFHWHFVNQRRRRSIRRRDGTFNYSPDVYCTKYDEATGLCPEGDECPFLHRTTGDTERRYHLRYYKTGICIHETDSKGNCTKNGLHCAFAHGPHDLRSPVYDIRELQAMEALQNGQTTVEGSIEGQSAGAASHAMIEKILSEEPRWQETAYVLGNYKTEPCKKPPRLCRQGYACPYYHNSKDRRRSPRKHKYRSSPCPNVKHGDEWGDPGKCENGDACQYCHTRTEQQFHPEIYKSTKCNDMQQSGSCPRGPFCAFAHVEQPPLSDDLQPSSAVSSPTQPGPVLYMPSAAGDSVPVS
Sequence	bound/input enrichment [ratio]
AGAGCCCAGGACGUUGAUGCUACAAACCCAAAUUACGAAAUUAUGUGUAUGAUCAGAGACUUCAGAGGGAGCUUGGAUUACAGACCCCUAACAACAGCAGAUCCUAUUGAUGAACAUAGG	0.383
CUGUGACCACAAGAUCCUACCUGAGUGGCAGCUGAAGUUGACUCCCUCUCCUUGCCUGAACCCCCCCCUUUUGUUCCCCCAUCCCCCAGUGUCGGCUAUUCUCUGGUCUCUGCACGGUUC	1.92
ACACAAUAUGAGACCAACAGCAUGGACUUCAAAGUUGGGGCAGAUGGGACAGUCUUCGCCACCCGGGAGCUGCAGGUCCCCUCAGAGCAGGUGGCCUUCACGGUGACUGCAUGGGACAGC	0.227
AACAGAUUGUCUUUAAGCAUUCCAAGCAAUGCUUGGGGGGUGAUCAUUGUUGCCCAUAUAUAGUAAUACUGAGCUUUAAUGCUGUUCCAUGUUACAUCUUUCCUUCACUCCAGAAUUGUU	0.616
UCAACAGACAACAUCAAAUACCAGCCUAAAGGGGGGCAGGUACAAAUUGUUACCAAGAAGAUAGACUUAAGCCAUGUGACAUCCAAAUGUGGCUCUCUGAAGAACAUCCGUCACAGGCCA	0.405
GAUAAGAAAAGCUUGUUGGAGACCCGCUUGCAUGUCACUGGCAGAGACCUGAGGUGUCAAAUAGCUGAAACUUUCGGAUUUCAAGAAAAUUACAUCAAAAUUGUCAUAAAUAAGAAACAG	0.336
UUGCUACUGACUCCCUGGGUUAAAUUCCUGUGGGAAUCAUACAGGCAGUGUUUGGACCUUCUUAGAAACAAUUCUAGAGUAGAGCGCCUUUACCAUGAUAUCGCCCAACAAGCUUUCAAA	0.237
CGCUGGCGUUGAACUGUGGACUCUGAUGGCCUCCAUCUCUCAGGCACGUGUGCCUUCUCUUAGUUAUUGUUUUCGGGAUGUUAUGAAUCUCAGUACUGUGGUUUGAAAGCACCAGCUUUG	3.45
AUCAAAUACUUUGGGGACAUCAUUAGUGUGGGACAGAGACUGUUGCAAGGAGCUCGGAUUUUAGGAAUUCCAGUUAUCAUAACGGAACAAUACCCCAAAGGUCUUGGCAGCACCGUUCAA	0.299
GUAGCUGGGACUACAGAAGAAUGCUGAAUUUCAGUCACUUGCUGAUGACUUCUGAUGUCCCAGCAAAUGUUGGCAUUGUUGACUGCUGAGAAGAUACUUCUGAGGACCCACGUCUAAGGU	0.0725
UUACCCGAGAACGAGGAUGAAUUGGAGAGCACCAACAGGCGCUACACCAAGAGGGACUGCAGCACUUUCCUCAGAACUAGUGAGACGGGCAUCGUGGACCAGGUCAUGGUAACUCUCAAC	0.215

Block 4
Target: Interferon regulatory factor 7, full length, phosphomimetic (IRF7, Homo sapiens, UniProt Q92985, residues 1-503, S101K/S471D/S472D/S475D/S476D/S477D/S483D/S484D/S487D)
Method: protein-binding microarray
Molecule type: double-stranded DNA, one strand shown
Sample: in vitro
Concentration: 250 nM
Notes: 60-bp whole probe
With: salmon DNA 0.4 mg/ml
Reference: random background probes
Reading: higher = stronger binding
Shared flanks, not repeated: GCCTAGCAC … GTCTTGATTCGCTTGACGCTGCTG
Residues (chain): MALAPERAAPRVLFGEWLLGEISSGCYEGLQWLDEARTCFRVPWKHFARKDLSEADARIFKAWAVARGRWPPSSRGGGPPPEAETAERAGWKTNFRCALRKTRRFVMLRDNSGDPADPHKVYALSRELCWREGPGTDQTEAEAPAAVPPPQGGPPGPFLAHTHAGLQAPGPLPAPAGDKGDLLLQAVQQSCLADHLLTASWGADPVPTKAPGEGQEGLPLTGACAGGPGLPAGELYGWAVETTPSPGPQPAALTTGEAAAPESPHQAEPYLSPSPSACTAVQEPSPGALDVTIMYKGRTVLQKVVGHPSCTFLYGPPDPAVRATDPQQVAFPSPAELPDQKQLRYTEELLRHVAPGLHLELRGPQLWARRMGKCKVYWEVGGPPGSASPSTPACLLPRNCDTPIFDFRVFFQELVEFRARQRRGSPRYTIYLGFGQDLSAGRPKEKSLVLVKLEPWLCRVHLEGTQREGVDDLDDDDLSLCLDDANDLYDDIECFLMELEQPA
Sequence	log fluorescence [z-score]
TCATCTCTGGTTCTTGCACTGTGCTAG	0.588
TCATTTCTCTTTCATTGCACTGTGCTA	2.84
AACGGACTGGACTTTCGGGACGTGCTA	-0.64
TCAATATTCACTATAGTACTGTGCTAG	0.659
GACGGTATGGACACTGGGGACGTGCTA	-0.659
TCATCTCTACTTGTGTCACTGTGCTAG	0.844
GACGCTTTCCTTCTCCTGACGTGCTAG	1.25
GACGGTATCCATTTCCTGACGTGCTAG	1.03
TCACATATTCTCTTCTTACTGTGCTAG	0.973
TTAGGTTTCGACACTGGGCTAGTGCTA	3.26
TTAGGTATCTGTATCGGTTAGTGCTAG	0.337
TGTTTCCTCTTTCTTTGCTTGTGCTAG	5.97
TTAGGTAACGGGTTTCGGTTAGTGCTA	6.26
TAAGATATCAGTTTCGATTAGTGCTAG	9.16
AACGGTATCCTTCTCCTGACGTGCTAG	0.323
GTCGATTTCGGGACTGGAGACGTGCTA	0.71
GACGGTATCGACTATCGGGGCGTGCTA	-0.215
TTAGGTATCGACTTTCGGTCAGTGCTA	1.69
TTAGGTATCGACCATCGGTTAGTGCTA	-0.244
AACGATTTCAGACTGGAGACGTGCTAG	0.0669
TTAGATTTCAGCTTCGATTAGTGCTAG	0.394

Excerpt of the above (block 4):
Sequence	log fluorescence [z-score]
GACGGTATCCATTTCCTGACGTGCTAG	1.03
TCATCTCTGGTTCTTGCACTGTGCTAG	0.588
TGTTTCCTCTTTCTTTGCTTGTGCTAG	5.97
GACGCTTTCCTTCTCCTGACGTGCTAG	1.25
TTAGGTATCGACTTTCGGTCAGTGCTA	1.69
TTAGGTAACGGGTTTCGGTTAGTGCTA	6.26
AACGGACTGGACTTTCGGGACGTGCTA	-0.64
GACGGTATCGACTATCGGGGCGTGCTA	-0.215
